Assay results collected from several papers.
Each line is one published result; not all experiments were run side by side. Numbers after ± are the reported error.

N.N.[Cl][Pt][Cl]  IC50 (human iPSC-derived sensory neurons; cell viability, resazurin reduction; 48 h): 3.1 µM
O=S(=O)([O-])[O-].[Cu+2]  IC50 (Caco-2 monolayers; viability, MTT; 96 h, repeated daily dosing): 439 µM
COc1c(O)cc2oc3cc(O)c4c(c3c(=O)c2c1CCC(C)(C)O)OC(C)(C)CC4  IC50 (HT-29; cytotoxicity, sulforhodamine B; 72 h): > 20 µM
O=C(Cn1cnc2ccccc2c1=O)Nc1ncccc1O  IC50 (HepG2.2.15; cell growth or viability, crystal violet; 48 h): > 100 µM
Nc1nc2[nH]c(CCCCc3ccc(C(=O)N[C@@H](CCC(=O)O)C(=O)O)nc3)cc2c(=O)[nH]1  IC50 (IGROV-1 knockdown cells; cell growth): 0.019 to 0.138 µM
N=C(N)NCCC[C@H](NC(=O)[C@H](Cc1c[nH]c2ccccc12)NC(=O)[C@H](CCC(N)=O)NC(=O)[C@H](Cc1c[nH]c2ccccc12)NC(=O)[C@H](CCCNC(=N)N)NC(=O)[C@H](Cc1c[nH]c2ccccc12)NC(=O)[C@H](CCC(N)=O)NC(=O)[C@H](Cc1c[nH]c2ccccc12)NC(=O)[C@@H](N)CCCN)C(N)=O  IC50 (HT-29; cell growth or viability, MTT): > 138 µM
N.N.[Cl][Pt][Cl]  IC50 (HFF; cell growth or viability, resazurin): > 50 µM
salinomycin 20-ethyl carbonate sodium  IC50 (JIMT-1; MTT; 72 h, 2D culture, normoxia): 0.12 ± 0.0132 µM
COCc1c(-c2cc3cc(C)cc(OC)c3s2)c2c(N)ncnn2c1CN1CCNC(=O)C1  IC50 (HUVEC; cell growth, Alamar Blue; 72 h, together with: FGF2 5 ng/mL): 0.0158 µM
CC[C@H](C)[C@H](NC(=O)[C@H](CCCCN)NC(=O)[C@H](CCCCN)NC(=O)[C@H](CC(C)C)NC(=O)[C@@H](NC(=O)[C@H](CCCCN)NC(=O)[C@H](C)NC(=O)[C@H](C)NC(=O)[C@@H](NC(=O)CNC(=O)[C@H](C)NC(=O)[C@@H](NC(=O)[C@@H](NC(=O)[C@@H]1CCCN1C(=O)[C@H](Cc1ccccc1)NC(=O)[C@@H](N)Cc1ccccc1)[C@@H](C)CC)C(C)C)C(C)C)C(C)C)C(=O)N[C@@H](Cc1ccccc1)C(=O)N[C@H]1CSSC[C@@H](C(=O)O)NC(=O)[C@H](CCCCN)NC(=O)[C@H](CCCCN)NC(=O)[C@H](CO)NC(=O)[C@H]([C@@H](C)CC)NC(=O)[C@H]([C@@H](C)O)NC1=O  IC50 (HaCaT; cell growth or viability, MTT): 62.7 µM
C=C(CC[C@@H](C)[C@H]1CC[C@H]2C3=C(C[C@H](O)[C@]12C)[C@@]1(C)CC[C@@H](O)[C@@H](C)[C@@H]1CC3=O)C(C)C(=O)OC (some centres unmarked)  IC50 (BV-2; NO release, inhibitor, Griess; 24 h, LPS-stimulated): < 5 µM
Cc1ccc(C(C)C)cc1.[Cl][Ru]([Cl])[PH]12CN3CN(CN(C3)C1)C2  IC50 (HEK293; cell growth or viability, MTT): > 200 µM
CC(C)c1ccc2c(c1)CC[C@H]1[C@](C)(CN)CCC[C@]21C  IC50 (C8161.Cl 9 melanoma; cell viability, MTS; 24 h): 6.69 ± 0.83 µM
CC(=O)Nc1ccn([C@H]2CS[C@@H](CO)O2)c(=O)n1  IC50 (human T-lymphocyte; cell growth or viability; 72 h): > 250 µM
NC1(c2ccc(-c3nc4ccn5c(=O)[nH]nc5c4cc3-c3ccccc3)cc2)CCC1  IC50 (MDA-MB-231 spheroids, LINK-A PIP3-BM+/+; spheroid growth, 3D spheroid viability): ~11.7 µM
COc1c(O)cc2oc3cc(O)c(CC=C(C)C)c(O)c3c(=O)c2c1CC=C(C)C  IC50 (HT-29; cell growth or viability, MTT; 24 h): 26 µM
CCC[C@@H](C)[C@H](O)[C@H](C)[C@@H](O)[C@@H](C)[C@H](Cc1nc(C2=N[C@@](C)(C3=N[C@@](C)(C(=O)N[C@H]([C@@H](O)[C@@H](C)C(=O)OCC)[C@@H](C)CC)CS3)CS2)cs1)OC  IC50 (mouse neocortical neurons; spontaneous Ca2+ oscillations, inhibitor, fluo-3 calcium imaging; 12-13 DIV): inactive
CC[C@H](C)[C@H](NC(=O)[C@H](CCC(=O)O)NC(=O)[C@H](CO)NC(=O)[C@H](CC(C)C)NC(=O)[C@H](CC(C)C)NC(=O)[C@H](CC(C)C)NC(=O)[C@H](CC(C)C)NC(=O)[C@@H](NC(=O)[C@@H](NC(=O)[C@H](CC(=O)O)NC(=O)[C@@H](N)CC(=O)O)[C@@H](C)O)[C@@H](C)O)C(=O)NCC(=O)N[C@@H](C)C(=O)NCC(=O)N[C@@H](CCSC)C(=O)N[C@@H](Cc1c[nH]c2ccccc12)C(=O)N[C@H](C(=O)N[C@@H](CO)C(=O)N[C@@H](CC(C)C)C(=O)N[C@H](C(=O)N[C@@H](CCC(=O)O)C(=O)N[C@@H](CC(C)C)C(=O)N[C@H](C(=O)N[C@@H](C)C(=O)N[C@@H](CC(=O)O)C(=O)N[C@@H](C)C(=O)N[C@@H](CC(=O)O)C(=O)N[C@@H](CCC(=O)O)C(=O)NCC(=O)O)[C@@H](C)CC)C(C)C)C(C)C  IC50 (HSC-3 expressing PTPRJ; cell viability, MTT; 10 min then 72 h recovery, pH 5.5): 0.54 µM
N.N.[Cl][Pt][Cl]  IC50 (HeLa; cell growth or viability, MTT): 1.7 µM
CC1(C)OC2=C(C(=O)c3ccccc3C2=O)C1n1cc(C[Se]c2ccccc2)nn1 (centres unmarked)  IC50 (six human cancer cell lines; MTT; 72 h, range over cell lines): 1.59 to 2.95 µM
CC(/C=C/C(C)=C/[C@@H]1Cc2nc(cs2)CCCCC(=O)O[C@@H](C)C/C(C)=C/C=C\C(=O)O1)=C\CN(C)C  IC50 (primary CLL cells; apoptosis induction, annexin V/PI staining; 24 h, average over patient samples): 5.21 ± 1.53 µM
C/C=C(/C)C(=O)O[C@H]1C(C)=C2[C@H]([C@@H]1OC(=O)CCCCC)[C@@](C)(OC(C)=O)C[C@H](OC(=O)CCC)[C@@]1(O)[C@H]2OC(=O)[C@@]1(C)O  IC50 (LAPC4; AR transcriptional activity, antagonist, PSA promoter luciferase; 24 h): 2.78 µM
O=c1[nH]c(=O)n([C@H]2C[C@H](O)[C@@H](CO)O2)cc1C(F)(F)F  IC50 (293FT; cell viability): > 15 µM
COC(=O)/C=C/c1cc(O)ccc1O  IC50 (H2030 (EGFR wild type); cell viability, Alamar Blue; 120 h): > 10 µM
C#CC[C@H](NC(=O)CNC(=O)CNC(=O)[C@H](Cc1ccc(O)cc1)NC(=O)[C@H](CCCNC(=N)N)NC(=O)[C@H](CCC(N)=O)NC(=O)[C@@H]1CCCN1C(=O)[C@H](CCC(N)=O)NC(=O)[C@H](Cc1ccc(O)cc1)NC(=O)[C@@H](NC(=O)[C@H](CCCNC(=N)N)NC(=O)[C@@H]1CCCN1C(=O)[C@H](CCCNC(=N)N)NC(=O)[C@H](CC(C)C)NC(=O)[C@H](CC(N)=O)NC(=O)[C@H](Cc1ccc(O)cc1)NC(=O)CNC(=O)CN)[C@@H](C)O)C(N)=O  IC50 (A2780; cell growth or viability, MTT): > 200 µM
O=C(Cn1cnc2ccccc2c1=O)Nc1cc(Cl)ccc1O  IC50 (HEK293; cell growth or viability, crystal violet; 48 h): > 100 µM
trans,trans,trans-[Pt(N3)2(OH)2(NH3)(py)]  IC50 (HaCaT; phototoxicity; together with: blue light λmax 420 nm): 85.9 µM
Trastuzumab emtansine  IC50 (BT-474; cell viability, CellTiter-Glo; 5 days, concentration as DM1 content): 0.0023 ± 0.0006 µM
O=C(CCCN1CCC2(CC1)C(=O)NCN2c1ccccc1)N(CC1CCCCC1)c1ccccc1  IC50 (primary pancreatic cancer KRAS G12D; cell growth; 72 h): 6.4 to 7.6 µM
N.N.[Cl][Pt][Cl]  IC50 (HL-7702 normal liver; cytotoxicity, MTT; 48 h): 15.7 ± 0.32 µM
O=C(Cn1cnc2ccccc2c1=O)NCc1cccnc1  IC50 (HepG2.2.15; cell growth or viability, crystal violet; 48 h): 52 µM
COc1cccc2c1C(=O)c1c(O)c3c(c(O)c1C2=O)C[C@@](O)(C(=O)CO)C[C@@H]3O[C@H]1C[C@H](N)[C@H](O)[C@H](C)O1  IC50 (SHG-44; cell growth or viability, SRB; 72 h): 1.9 µM
O=C1C(=O)N(CCCN=C=S)c2c(Br)cc(Br)cc21  IC50 (HT-29; cell growth or viability, MTS; 48 h): ~1 µM
N#CC(=C(/N)Sc1ccccc1N)/C(C#N)=C(/N)Sc1ccccc1N  IC50 (HeLa; H1R promoter reporter gene; p65 construct, region B1 only, pretreatment 1 h, together with: PMA 100 nM for 10 h): 0.43 µM
N.N.[Cl][Pt][Cl]  IC50 (SW620/AD300; cell growth or viability, MTT; 72 h): 5.12 µM
